# Experimental data gathered from unrelated publications.
# Each numbered part is a random draw from the data of one study; scales do not carry over between parts. Values joined by “and” are separate records of one study, mostly repeats; a detail may differ.
# Chain of UniProt P28335 (whole entry, looked up): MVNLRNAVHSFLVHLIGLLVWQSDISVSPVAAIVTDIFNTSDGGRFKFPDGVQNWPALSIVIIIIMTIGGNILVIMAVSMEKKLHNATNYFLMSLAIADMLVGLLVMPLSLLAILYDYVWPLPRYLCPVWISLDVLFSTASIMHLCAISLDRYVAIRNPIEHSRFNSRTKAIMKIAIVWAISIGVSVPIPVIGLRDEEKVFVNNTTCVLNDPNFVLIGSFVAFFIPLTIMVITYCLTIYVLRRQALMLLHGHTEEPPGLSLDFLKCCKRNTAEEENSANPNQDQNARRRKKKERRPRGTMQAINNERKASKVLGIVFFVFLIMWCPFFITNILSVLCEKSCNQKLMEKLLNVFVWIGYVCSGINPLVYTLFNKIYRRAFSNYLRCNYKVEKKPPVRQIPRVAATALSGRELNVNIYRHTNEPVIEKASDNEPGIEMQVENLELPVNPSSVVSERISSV
# Chain of UniProt P41145 (whole entry, looked up): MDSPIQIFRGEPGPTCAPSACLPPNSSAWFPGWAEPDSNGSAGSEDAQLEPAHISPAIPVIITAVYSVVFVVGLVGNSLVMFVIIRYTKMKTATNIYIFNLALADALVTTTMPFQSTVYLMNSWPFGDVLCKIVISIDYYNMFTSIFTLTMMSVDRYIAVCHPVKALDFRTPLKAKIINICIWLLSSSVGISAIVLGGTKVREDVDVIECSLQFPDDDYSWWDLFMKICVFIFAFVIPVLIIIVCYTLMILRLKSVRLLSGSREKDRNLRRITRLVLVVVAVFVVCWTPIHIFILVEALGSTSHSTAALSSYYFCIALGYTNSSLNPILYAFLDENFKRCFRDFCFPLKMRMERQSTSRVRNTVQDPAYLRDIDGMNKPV
# Chain of UniProt P28223 (whole entry, looked up): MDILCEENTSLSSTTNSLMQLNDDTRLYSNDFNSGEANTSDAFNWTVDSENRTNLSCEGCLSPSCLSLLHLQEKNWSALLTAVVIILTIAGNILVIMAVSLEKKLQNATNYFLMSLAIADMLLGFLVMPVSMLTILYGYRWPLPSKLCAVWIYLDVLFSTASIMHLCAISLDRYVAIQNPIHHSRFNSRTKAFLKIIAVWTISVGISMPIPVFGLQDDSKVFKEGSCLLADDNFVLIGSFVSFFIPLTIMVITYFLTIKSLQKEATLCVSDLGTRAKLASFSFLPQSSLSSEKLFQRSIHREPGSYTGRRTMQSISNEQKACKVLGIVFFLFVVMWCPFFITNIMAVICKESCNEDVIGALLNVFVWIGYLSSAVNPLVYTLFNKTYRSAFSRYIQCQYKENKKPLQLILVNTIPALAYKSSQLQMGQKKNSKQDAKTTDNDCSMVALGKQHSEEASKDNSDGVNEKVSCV

# Block 1
# SMILES: CCOCCn1cc(C(=O)Nc2ccc(-n3nc(-c4cccnc4)cc3C(F)(F)F)cn2)ccc1=O
# Tested at: 10 µM
target,effect on,method,inhibition
"Kappa-type opioid receptor (OPRK1, Homo sapiens, UniProt P41145)",binding,radioligand binding,3.2%
"5-hydroxytryptamine receptor 2A (HTR2A, Homo sapiens, UniProt P28223)",cell-free assay,,-4.26%
"5-hydroxytryptamine receptor 2C (HTR2C, Homo sapiens, UniProt P28335)",binding,radioligand binding,3.75%

# Block 2
# Target: chymotrypsin
# Effect on: enzyme activity
# Action: inhibitor
# Tested at: 10 µM
# Setting: with DTT
Compound,inhibition
COC(=O)C1=C(C)NC(C)=C(C(=O)OC)C1c1ccccc1[N+](=O)[O-],7.7%
COc1cc(-c2ccc(/N=N/c3ccc4c(S(=O)(=O)O)cc(S(=O)(=O)O)c(N)c4c3O)c(OC)c2)ccc1/N=N/c1ccc2c(S(=O)(=O)O)cc(S(=O)(=O)O)c(N)c2c1O,4.7%
O=C(CCl)c1ccccc1,7.8%
O=C(NCCCNc1nc(Nc2cccc(NC(=O)N3CCCC3)c2)ncc1I)c1cccs1,21.2%
CC(=O)O/N=C1\C(=O)N(Cc2cc(Cl)ccc2Cl)c2ccc(Cl)cc21,2.7%

# Single results of other studies
SMILES,target or system,test,system,setting,scale,measurement,value
COc1cc2c(cc1OC)[C@@H]1C(=O)c3ccc4oc(C(C)C)cc4c3O[C@@H]1CO2,,,"human, microsomes or S9","2 µM, 0.5 h",,remaining compound,5.75%
CN(C(=O)c1ccn2ncc(-c3ccc(C(N)=O)cc3)c2c1)c1ccc(C#N)cn1,C. parvum PI4K Y705A/Y907A,"enzyme activity, inhibitor, ADP-Glo",,,baseline: mutant over wild type,fold IC50 shift,164 and 258
C=C(C)[C@H]1Cc2c(ccc3c2O[C@@H]2COc4cc(OC)c(OC)cc4[C@@H]2C3=O)O1,,,"human, microsomes or S9","2 µM, 0.5 h",,remaining compound,28.8%

# Repeated from above (block 2):
Compound,inhibition
O=C(NCCCNc1nc(Nc2cccc(NC(=O)N3CCCC3)c2)ncc1I)c1cccs1,21.2%
